# Published values gathered from unrelated publications.
# A part holds a random share of what one study measured.

# Block 1
# Target: RING finger protein unkempt homolog, zinc fingers 1-6, GST-SBP tag (UNK, Homo sapiens, UniProt Q9C0B0, residues 30-357)
# Chain of UniProt Q9C0B0 (30-357, looked up): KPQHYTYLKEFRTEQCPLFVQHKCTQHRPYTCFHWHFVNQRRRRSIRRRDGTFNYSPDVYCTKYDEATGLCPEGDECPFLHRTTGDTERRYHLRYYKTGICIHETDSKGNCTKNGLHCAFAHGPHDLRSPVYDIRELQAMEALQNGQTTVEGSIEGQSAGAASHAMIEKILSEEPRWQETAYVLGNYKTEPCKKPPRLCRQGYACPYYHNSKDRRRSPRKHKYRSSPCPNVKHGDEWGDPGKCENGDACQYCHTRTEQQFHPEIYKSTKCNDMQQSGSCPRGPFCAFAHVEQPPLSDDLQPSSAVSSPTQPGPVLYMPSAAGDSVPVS
# Technique: RNA Bind-n-Seq
# Form: RNA
# Sample: in vitro
# Tested at: not given
# Notes: RNA with constant flanks, ends assumed
# Baseline: input RNA pool
# Direction: higher = stronger binding
Oligonucleotide,bound/input enrichment
GGGAGUUCUACAGUCCGACGAUCUUGCAUACACACACCCCCACCCCAGAGUGUUCUCAGUAUGUCAGAGAAAGUGCCACAGCAUCCGGACGGGAGCUUGGAGAACGUUUUCUAGAAAAGGGUUAGCUUCCUGUUGGCAUGAAACAACAGAGGAUUGAGCAUCA,0.771 ratio
GGGAGUUCUACAGUCCGACGAUCAAGAUCUCUGAUGAUCUGAUGCAGAAGAUCAGUACUCAGAACCGCCGGGCCCUAGACCUUGCCGCCGCAAAGUGUUACUAUUAUCACGCCCGGGUCUAUGAGUUCCUGGACAAGCUGGAUCAACAGAGGAUUGAGCAUCA,0.151 ratio
GGGAGUUCUACAGUCCGACGAUCAUUUGGUCUCUGUCCCCCCCCGGGGGGGGCGGGGGGGGCGAGCCCAGCCCCUCCGGUGCGACCCGGAAUGAAGCUGGACAGUGCCGAAGAGAAGUCGGGGGUCGGCUGCUCCCUGCCUGCCAACAGAGGAUUGAGCAUCA,0.105 ratio
GGGAGUUCUACAGUCCGACGAUCUGUACAAACCCCAUAACGCCCCUCUGCACACAGCCCGACCAAGUUAUUAAAGGGGGCGCCCGUAUUAUUCAGUGCCACAUCCUAAAUGACAAGCGACACAUAUUAACCAAAGAUACGAAUCAACAGAGGAUUGAGCAUCA,0.141 ratio

# Block 2
# Target: RNA binding protein fox-1 homolog 2, RRM domain, GST-SBP tag (RBFOX2, Homo sapiens, UniProt O43251-10, residues 100-194)
# Technique: RNA Bind-n-Seq
# Form: RNA
# Sample: in vitro
# Tested at: 365 nM
# Notes: natural RNA segment, single round, ends assumed
# Baseline: no-protein control
# Direction: higher = stronger binding
Oligonucleotide,RBNS enrichment (R)
GGGAGUUCUACAGUCCGACGAUCAAUUUAUAAGUAACACUGUUGAAACCCUGAUCCCAGUGGAGGCUGUAACCCACCUGCCCCCGCACCACCCCCCUGACCCCUGUUACCGCAUUUGUGUGUAUUAAUGCUGAUGGAAUUCUCGGGUGCCAA,0.902
GGGAGUUCUACAGUCCGACGAUCAACUGUUAUUAGUAUAGAAGUGGCUUAAAGAAAAGCAUCUUCAAAUACUUGACUUAGCAUAUCUUUCUUCUUUAGACUUACAUAAUGAUAUUCAUCUCUCCAUUAGCAAUUGGAAUUCUCGGGUGCCAA,0.49
GGGAGUUCUACAGUCCGACGAUCUAGACCUUAAAACUGUGCUGCCUUAGUGGUAAGUAAGGGGUGGGGGUUGGACAGUGAAUCUUAAGAUUUCAUCCUUCAUUCAGUAAGCAUUUGAGUACCUACUGUGAGCAUGGAAUUCUCGGGUGCCAA,0.434
GGGAGUUCUACAGUCCGACGAUCUGCGCUGACCGCUGCAUGGUGUCGUGACCUGGGCCUCAUUUGUAGCUGCACUGCCUUUCCUUGUCUGCAAAGUUGGUUUUGUCCACUCUGACCAAGACCUCUAGUUUUUGUGGAAUUCUCGGGUGCCAA,0.636

# Block 3
# Target: Histone acetyltransferase KAT6A, both winged helices, GST fusion (KAT6A, Homo sapiens, UniProt Q92794, residues 1-181)
# Technique: protein binding microarray
# Form: double-stranded DNA, one strand shown
# Sample: in vitro
# Tested at: not given
# Notes: 8-mer, flanks averaged, mean of 2 arrays, mostly near background
# Baseline: not given
# Direction: higher = stronger binding
# Target sequence (chain): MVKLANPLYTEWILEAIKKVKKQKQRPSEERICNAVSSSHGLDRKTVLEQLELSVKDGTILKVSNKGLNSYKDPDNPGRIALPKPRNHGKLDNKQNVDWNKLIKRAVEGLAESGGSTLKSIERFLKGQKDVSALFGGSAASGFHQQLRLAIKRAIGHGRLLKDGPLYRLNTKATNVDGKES
Oligonucleotide,E-score
TACGAATA,-0.175
CTCGAGAC,-0.013
AACCGCAA,0.138
CAATTAGA,-0.18
GTGAGCAC,-0.0726

# Further values, each from its own experiment
Substance,target,test,test system,setting,how to read,measurement,value
"PhoQ, residues 284 288 289 292 302 303 AAQSYM","PhoP, residues 12 14 15 18 19 NIMAP (Escherichia coli, UniProt P23836)","Sort-seq, item: YFP reporter",E. coli,"PhoQ-PhoP variant library, with: 10 µM Mg2+","baseline: high Mg2+ state, higher = stronger signaling",fold induction,0.623

# Repeated from above (block 1):
Oligonucleotide,bound/input enrichment
GGGAGUUCUACAGUCCGACGAUCUUGCAUACACACACCCCCACCCCAGAGUGUUCUCAGUAUGUCAGAGAAAGUGCCACAGCAUCCGGACGGGAGCUUGGAGAACGUUUUCUAGAAAAGGGUUAGCUUCCUGUUGGCAUGAAACAACAGAGGAUUGAGCAUCA,0.771 ratio
